Assay results pooled from the literature.
A part holds a random share of what one study measured. Changes are numbered by the printed parent chain.

Block 1 — target: CCND3, cyclin fold, Cln2 fusion (human); method: yeast growth competition, sequencing; sample: yeast; notes: weak parent motif; reference: not given; reading: higher = stronger binding
Parent: DTL docking peptide (human); PSSMRKICTYFHR
| Substitution | normalised enrichment score |
| --- | --- |
| S2A | -0.9 |
| R5A | -0.099 |
| R13A | -0.175 |
| H12A | 0.146 |
| M4A | -0.143 |
| Y10A | 0.246 |
| K6A | 0.418 |

Block 2 — method: RNA Bind-n-Seq; form: RNA; sample: in vitro; concentration: 365 nM; reference: no-protein control; reading: higher = stronger binding
Target: RNA binding protein fox-1 homolog 2, RRM domain, GST-SBP tag (RBFOX2, Homo sapiens, UniProt O43251-10, residues 100-194)
Notes: natural RNA segment, single round, ends assumed
Residues (chain): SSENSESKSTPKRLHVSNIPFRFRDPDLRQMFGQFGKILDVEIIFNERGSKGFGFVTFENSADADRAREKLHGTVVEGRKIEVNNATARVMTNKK
| Sequence | RBNS enrichment (R) |
| --- | --- |
| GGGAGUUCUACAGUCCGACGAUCGUGAAAUAAAAAAAAAUUUUAAGUGUUCUCGGGGAUGCAUAGAUUCAUCAUUUUCUCCACCUUAAAAAUGCGGGCAUUUAAGUCUGUCCAUUAUCUAUAUAGUCCUGUCUUGGAAUUCUCGGGUGCCAA | 0.386 |
| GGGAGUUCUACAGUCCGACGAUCUUAAAAAGAUAAACGGAUUUGAGCCUCCCUGAUUUCAAUCAAGAGCCCUGUGUGUGGAAUUCCAGAUUUUUCUUUUCCUUUAAUAUCACUUUAUGGGUUCUAGAUGAUGUUGGAAUUCUCGGGUGCCAA | 0.276 |
| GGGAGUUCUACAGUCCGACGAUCUCCCUCAGCAGAAACGUGUUUAUCAGCAAGUCGUGAGUCAAACUGCUGCCUUUUAAAAAACCCACAAAAUGCUGAUUCAGUUCAAAAUUAAUGCAAAUGUUUCAAAACUGUGGAAUUCUCGGGUGCCAA | 1.02 |
| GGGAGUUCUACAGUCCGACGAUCGGCCUCAUAUGUUCCAUGAGGAGCUAGGCCUCGUGGAAUGGCUGGCUGACUAAACCCAGAAAGCCAAGGCUCUGCCAGUGGAAGAGACUUCACUUUUGUAGACCUUCCCUUGGAAUUCUCGGGUGCCAA | 0.21 |
| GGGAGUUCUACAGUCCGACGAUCGACUUCAAGUCUCAUUUUAUCUGAAAGGUUUUUUUCUCAUUUAAUCUGAUGUGGCAUUUUCGUCAUCUGAAGCAUGAGUGACAAGUUGGGAAUGAUGUGGUGAUUUAGAAUGGAAUUCUCGGGUGCCAA | 0.834 |
| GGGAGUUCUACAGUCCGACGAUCCUAGGAAGCCAACAGCAGGGCAGGUCAACUGUAGCUUAACCUUUAGAGCUCUUCAAGGUGCAGGGACUGCCUGCCCAGGCCCCAGCCCCAGACCUCACCUUUGACUGCCAUGGAAUUCUCGGGUGCCAA | 0.329 |
| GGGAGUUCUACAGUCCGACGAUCCAGUGAAAAUCCUCAUUGUUGGAGUGUAAACCAAAUACGAAGCCCUCUUGCAAAGUAGCCUCUUUCAUCCCAUACUCAAAAUACCCAGUUUAGCAAGCAACUGAGAUUUAUGGAAUUCUCGGGUGCCAA | 1.92 |
| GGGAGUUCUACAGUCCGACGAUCUAAACUAGAUCAUCUUAGACUUGUUUAUACCUUCCAGAUUUGAUUGUUUUACUCCCAAUGACUGCACUAUAUGUAUGCAUAAGACCACUUUUGAGCGCUGUGUUCCCCCUUGGAAUUCUCGGGUGCCAA | 1.2 |
| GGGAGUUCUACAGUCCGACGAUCUGGAAUUUAAAAAUAUCGAUAUCACCAUGAUUUAAUCCAGAUCUGGGAUUAUGUAGCUAAACAUUGUGAUGAUUAUUAUUUAAAACCAUUAUUUAAUAAGAGUAAAAAUAUGGAAUUCUCGGGUGCCAA | 0.644 |
| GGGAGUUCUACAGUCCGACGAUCCAAAUAGUUUAAUGUUUUAGUCAGAGAAAAAAAAAUAUACAAUUAUAUAAUAUCUCAUUUAAUAAGUUUAAUACAUACAAAGAUAAUCUAUAUAUUUUACCAAUUUAAUGUGGAAUUCUCGGGUGCCAA | 1.11 |
| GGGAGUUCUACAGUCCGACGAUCUAUAGCUCCUGAGGGAAGCCAAUCAACUUCUGUUUUCCUACCUGACCUGCAGGGCAUGAUGGAUCAGUGAUGAAAGAAUUGUAGCCUGUGGCACUUUGUUUUGACCUCUGUGGAAUUCUCGGGUGCCAA | 2.49 |
| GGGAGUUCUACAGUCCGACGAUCCCGUCUUUGAUUCACCGGGAUGUACAGUUUACAGUUGAAGAGCAAACAGAAAGGUUUUCUCUUGGUGGGAUAUGCAGAACUUGGGAUGUGUGUAUAUAUAAAUAUAUAAUUGGAAUUCUCGGGUGCCAA | 1.79 |

Block 3 — target: CEBPB, bZIP domain (human); method: DHFR protein complementation; sample: yeast; reference: wild-type JUN-FOS pair; reading: higher = stronger binding
Notes: single substitutions, most at no-binding floor
Parent: JUN, bZIP domain (human); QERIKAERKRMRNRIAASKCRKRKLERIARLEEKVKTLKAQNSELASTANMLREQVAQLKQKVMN; partner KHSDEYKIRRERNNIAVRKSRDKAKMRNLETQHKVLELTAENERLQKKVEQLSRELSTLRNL
| Substitution | binding fitness [natural log] |
| --- | --- |
| M51N | -1.31 |
| L45T | -1.48 |
| E44H | -1.42 |
| T37M | -0.62 |
| K39M | -1.35 |
| T48K | -1.08 |
| T48W | -1.5 |
| K36E | -1.25 |
| L45S | -1.2 |
| A40K | -1.26 |
| S43E | -1.14 |
| S43N | -1.35 |
| L45P | -1.54 |
| R30T | -1.08 |
| R53L | -1.21 |
| E44P | -1.48 |

Block 4 — method: RNAcompete; form: RNA; sample: in vitro; concentration: 20 nM; notes: 7-mer, probes averaged, single round; reference: mean of 7-mers; reading: higher = stronger binding
Target: PABPC1L2, full length, GST fusion (mouse, UniProt A0ABA7IW68)
| Sequence | 7-mer Z-score |
| --- | --- |
| AAGCUGG | 0.184 |
| UCACCGA | -0.0681 |
| AAUACUC | 0.0315 |
| GUGGAAA | 0.702 |
| CUCCUAA | -0.0428 |
| AGGUCUU | -0.211 |
| GGCUGAU | -0.0192 |
| GUGUAAU | -0.124 |
| CGCGAGG | -0.246 |
| GAGUUAC | -0.273 |
| CCCGAUA | -0.204 |
| GAGCGCA | -0.119 |
| CGGGUAU | -0.0808 |
| GGGUCUA | 0.135 |
| CCCUCCC | -0.387 |
| GCGAAUU | -0.13 |
| AAUAAAU | 3.32 |
| GCCACCU | -0.257 |
| UACGAAC | -0.18 |
| AUUUGAC | -0.258 |
| GCUACGG | -0.05 |
| CCGCAGU | -0.199 |
| AGCCUAG | -0.132 |
| GUAGGCA | 0.14 |
| CGCCAAA | 0.238 |

Block 5 — method: protein-binding microarray; form: double-stranded DNA, one strand shown; sample: in vitro; concentration: not given; reading: higher = stronger binding
Target: Protein C-ets-1 (ETS1, Homo sapiens, UniProt P14921, residues 1-441, full length assumed)
Notes: k-mer, scored over probes, only values ≥0.25
Target sequence (chain): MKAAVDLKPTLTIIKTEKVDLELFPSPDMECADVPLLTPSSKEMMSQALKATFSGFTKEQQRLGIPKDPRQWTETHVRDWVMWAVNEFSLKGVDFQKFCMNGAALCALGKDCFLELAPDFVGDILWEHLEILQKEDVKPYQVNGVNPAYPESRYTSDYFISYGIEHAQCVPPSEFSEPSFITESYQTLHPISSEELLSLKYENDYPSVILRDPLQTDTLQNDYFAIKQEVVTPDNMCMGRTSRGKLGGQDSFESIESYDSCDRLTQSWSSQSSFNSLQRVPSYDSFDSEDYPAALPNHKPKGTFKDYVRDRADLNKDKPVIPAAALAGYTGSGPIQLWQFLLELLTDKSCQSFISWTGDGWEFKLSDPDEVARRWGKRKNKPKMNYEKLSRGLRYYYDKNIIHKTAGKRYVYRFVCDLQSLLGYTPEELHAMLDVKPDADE
| Sequence | E-score |
| --- | --- |
| CGGAAGGC | 0.437 |
| GACGGGAA | 0.334 |
| CATCCTCC | 0.386 |
| AAAATCCG | 0.333 |
| AGAAGGAA | 0.265 |
| CGTTTCCA | 0.256 |
| TATCCGGA | 0.46 |
| AGCCCGGA | 0.374 |
| CCCTTTCC | 0.317 |
| ATCGGAAG | 0.437 |
| GGAAACAC | 0.391 |
| CGGCGGAC | 0.28 |
| ACCGGAAA | 0.495 |
| CGGGGGAA | 0.351 |
| ACCGGGAA | 0.359 |
| GAAGGGAA | 0.309 |
| GGAACCAC | 0.258 |

Block 6 — method: DHFR PCA, dose-response; sample: yeast; together with: (+)-ABA, dose series; reading: lower = more sensitive
Target: ABI1, truncated, D143A, DHFR fusion (Arabidopsis thaliana, UniProt P49597)
Notes: Hill fit, not affinity, not high confidence
Parent: PYL1, truncated, DHFR fusion (Arabidopsis thaliana, UniProt Q8VZS8); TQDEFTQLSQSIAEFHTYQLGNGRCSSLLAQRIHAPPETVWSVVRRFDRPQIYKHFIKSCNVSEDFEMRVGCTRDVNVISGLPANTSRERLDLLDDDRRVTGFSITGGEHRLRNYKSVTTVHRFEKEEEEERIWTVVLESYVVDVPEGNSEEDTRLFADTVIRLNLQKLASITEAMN
| Substitution | ABA EC50 |
| --- | --- |
| G102Y | 1.27 µM |
| I57P | 8.99 µM |
| H122W | 936 µM |
| V161E | 0.185 µM |
| V137S | 3.84 µM |
| D153F | 224 µM |
| H110K | 0.393 µM |
| L91H | 107 µM |
| I33W | 0.311 µM |
| P83G | 172 µM |
| V145D | 579 µM |
| T101I | 23.3 µM |
| P50K | 278 µM |
| N165L | 2.44 µM |
| Y141P | 0.358 µM |
| S117K | 679 µM |
| N149A | 79.1 µM |
| T135Y | 109 µM |
| F47E | 1.7 µM |

Block 7 — method: universal PBM; form: double-stranded DNA, one strand shown; sample: in vitro; concentration: not given; reading: higher = stronger binding
Target: Sal-like protein 4, full length isoform B (SALL4, Homo sapiens, UniProt Q9UJQ4-2, residues 1-616)
Notes: 8-mer, flanks averaged, mean of replicates
| Sequence | E-score |
| --- | --- |
| ACCAGACA | 0.0432 |
| CTAGTCCC | -0.167 |
| ATGCGGTG | -0.239 |
| CCGTTGTA | 0.0328 |
| CTCTCCGA | -0.217 |
| CAGTAACA | 0.141 |
| CCCTTCTC | -0.232 |
| CAAGCCGG | -0.262 |
| CTGGACCC | -0.275 |
| ATCCTACA | 0.0549 |
| AGGCGTGA | -0.163 |
| ACATCGCT | 0.0133 |
| GACAAACC | -0.0535 |
| CAGAATAG | 0.0324 |
| AGTTGCAA | 0.0588 |
| GGGTTGAA | -0.0791 |
| TATTACAA | 0.434 |
| CGCGCTTC | -0.139 |
| TACGAAGA | 0.229 |
| CGGGCGGC | -0.398 |
| GATAGTGC | -0.108 |
